Measurements of several laboratories.
Parts stem from different laboratories: compare values within a part only.

Sample 1 — technique: RNA Bind-n-Seq; form: RNA; medium: in vitro; concentration: 200 nM; notes: whole 134-nt RNA, ends assumed; together with: 150 mM LiCl; baseline: input library; reading: higher = stronger binding; library: 7-deaza-guanosine replaces G
Target: Fragile X messenger ribonucleoprotein 1, C-terminal low-complexity region (Fmr1, Mus musculus, UniProt P35922)
| Oligonucleotide | log2 enrichment |
| --- | --- |
| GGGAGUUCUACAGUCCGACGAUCCUGUGCUACACAUCGUAUGUACCGAAUCGGGUUUUUUGGGGUUUUUUGGGGUUUUUUGGGGAAAGUAUUAUGUUACGCCGUUCGGAUCUGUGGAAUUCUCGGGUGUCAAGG | 1.4 |
| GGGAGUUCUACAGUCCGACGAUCGUCCUGUGCUACACAUCGUAUGUACCGAAUCGGGAAAAAGGGUUUUUUUGGGUUUGGGAAAGUAUUAUGUUACGCCGUUCGGAUCUGCACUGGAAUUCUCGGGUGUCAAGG | -2.33 |
| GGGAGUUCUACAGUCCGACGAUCACCAUGCAGGUGGGCAUCUUUGGGAAGUCGGGCAAGGGGGGGAUAGGGAGGGGGGUAACACUUUGGGAACAGGUGGUCCCAGGUCGUUUCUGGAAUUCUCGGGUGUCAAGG | 1.86 |
| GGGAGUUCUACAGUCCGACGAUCUCAAGUCCUGUGCUACACAUCGUAUGUACCGAAUCGGCCCCGGCCCCGGCCCCGGAAAGUAUUAUGUUACGCCGUUCGGAUCUGCACUUCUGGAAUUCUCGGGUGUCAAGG | -0.095 |
| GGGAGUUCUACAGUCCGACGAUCCUCAAGUCCUGUGCUACACAUCGUAUGUACCGAAUCGGGAAGGGAAGGGAAGGAAAGUAUUAUGUUACGCCGUUCGGAUCUGCACUUCCAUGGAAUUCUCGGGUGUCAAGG | -0.459 |
| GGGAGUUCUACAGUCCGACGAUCAAGUCCUGUGCUACACAUCGUAUGUACCGAAUCGGGGUUUGGGGAGGGGAAAGGGGAAAGUAUUAUGUUACGCCGUUCGGAUCUGCACUUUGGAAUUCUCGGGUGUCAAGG | -0.563 |
| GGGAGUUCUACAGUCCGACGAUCUGGGAGGUGGAUUUUGUUUAUUUUUUUAGCUCAUUUCCAGGGGUGGGAAUUUUUUUUUAAUAUGUGUCAUGAACAAAGUUGUUUUUGAAAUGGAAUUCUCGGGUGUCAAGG | -0.218 |

Sample 2 — technique: protein binding microarray; form: double-stranded DNA, one strand shown; medium: in vitro; concentration: not given; baseline: not given; reading: higher = stronger binding
Target: Histone acetyltransferase KAT6A, winged helix 2, GST fusion (KAT6A, Homo sapiens, UniProt Q92794, residues 85-181)
Notes: 8-mer, flanks averaged, mean of 2 arrays, mostly near background
Residues (chain): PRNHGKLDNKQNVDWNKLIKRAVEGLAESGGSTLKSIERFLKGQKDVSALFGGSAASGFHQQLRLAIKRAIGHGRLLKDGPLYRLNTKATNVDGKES
| Oligonucleotide | E-score |
| --- | --- |
| GAAGAATC | 0.0173 |
| CCAGAGGA | 0.0447 |
| ATATGCAA | -0.0215 |
| CGCTTAGA | -0.142 |
| CTCGTGCC | -0.0129 |
| ATCTGCCC | -0.16 |
| CTTTCGAC | -0.00679 |
| CGTTTGCA | 0.102 |
| AAACGGAT | 0.0305 |
| ACGGTTCC | -0.204 |

Sample 3 — technique: protein-binding microarray; form: double-stranded DNA, one strand shown; medium: in vitro; concentration: 2540 nM top; notes: 60-bp whole probe; together with: salmon DNA 0.4 mg/ml; baseline: random background probes; reading: higher = stronger binding; shared flanks, not repeated: GCCTAGCAC … GTCTTGATTCGCTTGACGCTGCTG
Target: Interferon regulatory factor 3, full length, phosphomimetic (IRF3, Homo sapiens, UniProt Q14653, residues 1-427, S386D/S396D/S398D/S402D/T404D/S405D)
Target sequence (chain): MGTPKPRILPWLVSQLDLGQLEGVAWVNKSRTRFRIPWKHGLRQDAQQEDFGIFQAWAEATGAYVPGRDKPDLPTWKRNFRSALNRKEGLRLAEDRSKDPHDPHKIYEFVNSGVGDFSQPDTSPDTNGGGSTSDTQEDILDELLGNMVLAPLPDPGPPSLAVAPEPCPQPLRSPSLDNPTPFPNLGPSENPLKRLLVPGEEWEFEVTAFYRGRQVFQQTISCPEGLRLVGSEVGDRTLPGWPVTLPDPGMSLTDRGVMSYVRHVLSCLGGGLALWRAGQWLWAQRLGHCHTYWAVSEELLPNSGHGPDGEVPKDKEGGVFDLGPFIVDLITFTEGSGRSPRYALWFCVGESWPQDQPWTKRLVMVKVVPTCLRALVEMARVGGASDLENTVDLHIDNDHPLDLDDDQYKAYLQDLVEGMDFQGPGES
| Oligonucleotide | fitted relative affinity [z-score] |
| --- | --- |
| TTCATTTTGTGTCTGGGCATGTGCTAG | 0.611 |
| TTTGGTATCCTTATCCTTTAGTGCTAG | 6 |
| TGCTTTCTCTTTCACTACTCGTGCTAG | 4.52 |
| TTCTTTATGTACTCTCTCCATGTGCTA | 0.825 |
| GACGAACTGAGACTGGAGAGGTGCTAG | -0.453 |
| CTCTGTTTATGTCTGGGTATGTGCTAG | 0.405 |
| CACGATTTCGGGTATCGAGACGTGCTA | 1.3 |
| TCAATTCTAGCCTATAGAACTGTGCTA | 0.38 |

Further values, each from its own experiment
| Molecule | target | assay | test system | conditions | how to read | quantity | value |
| --- | --- | --- | --- | --- | --- | --- | --- |
| PhoQ, residues 284 288 289 292 302 303 SLSVQF | PhoP, residues 12 14 15 18 19 VHSCL (Escherichia coli, UniProt P23836) | Sort-seq, refers to: YFP reporter | E. coli | PhoQ-PhoP variant library, together with: 10 µM Mg2+ | baseline: high Mg2+ state, higher = stronger signaling | fold induction | 5.09 |

A few entries again (sample 1):
| Oligonucleotide | log2 enrichment |
| --- | --- |
| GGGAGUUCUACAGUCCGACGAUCAAGUCCUGUGCUACACAUCGUAUGUACCGAAUCGGGGUUUGGGGAGGGGAAAGGGGAAAGUAUUAUGUUACGCCGUUCGGAUCUGCACUUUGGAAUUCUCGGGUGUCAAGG | -0.563 |
| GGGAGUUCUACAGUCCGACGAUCUGGGAGGUGGAUUUUGUUUAUUUUUUUAGCUCAUUUCCAGGGGUGGGAAUUUUUUUUUAAUAUGUGUCAUGAACAAAGUUGUUUUUGAAAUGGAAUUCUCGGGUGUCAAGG | -0.218 |
